Published values gathered from unrelated publications.
Every numbered part comes from another study and shows a few of its results, in no order.

Study 1
Target: Histone acetyltransferase KAT6A, both winged helices, GST fusion (KAT6A, Homo sapiens, UniProt Q92794, residues 1-181)
Method: protein binding microarray
Form: double-stranded DNA, one strand shown
Matrix: in vitro
Tested at: not given
Notes: 8-mer, flanks averaged, mean of 2 arrays, mostly near background
Relative to: not given
Direction: higher = stronger binding
Target sequence (chain): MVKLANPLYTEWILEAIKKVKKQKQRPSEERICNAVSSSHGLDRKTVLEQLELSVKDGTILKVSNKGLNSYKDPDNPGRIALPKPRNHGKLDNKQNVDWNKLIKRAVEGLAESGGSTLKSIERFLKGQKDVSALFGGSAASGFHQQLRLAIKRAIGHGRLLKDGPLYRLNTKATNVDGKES
With `CGAACGGC` the E-score was 0.303.
The E-score of `AAAGGAAC` is reported as -0.0299.
`GATGACTA` gave an E-score of -0.0931.
`ATGGGTTA` gave an E-score of -0.16.
With `CGAGTACA` the E-score was -0.13.
For `AAAACGGA`, the E-score was 0.128.
The E-score of `GGCTCTAC` is reported as 0.0175.
`TCGCAACA` gave an E-score of 0.00671.
`TATGTGAA` gave an E-score of -0.079.
The E-score of `CACTCTAG` is reported as -0.12.
`GTTATGCA` gave an E-score of -0.105.
With `TTCGGCAA` the E-score was 0.067.
For `GTTGGTCA`, the E-score was -0.0866.
With `ACTGTAGG` the E-score was -0.105.
With `CCACGATC` the E-score was 0.00223.
For `AACCGCCC`, the E-score was 0.0874.
With `ATTTAAAT` the E-score was -0.0658.
For `AAGGCCGT`, the E-score was 0.249.

Study 2
Target: RNA binding protein fox-1 homolog 2, RRM domain, GST-SBP tag (RBFOX2, Homo sapiens, UniProt O43251-10, residues 100-194)
Method: RNA Bind-n-Seq
Form: RNA
Matrix: in vitro
Tested at: 365 nM
Notes: natural RNA segment, single round, ends assumed
Relative to: no-protein control
Direction: higher = stronger binding
Target sequence (chain): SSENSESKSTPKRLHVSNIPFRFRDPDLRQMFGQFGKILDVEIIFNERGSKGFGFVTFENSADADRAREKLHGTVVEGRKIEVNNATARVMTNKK
Under “RBNS enrichment (R)”, `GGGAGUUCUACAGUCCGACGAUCAGAAGAAAGGUUUUCGGAGGCGCUGUGAUGUGGUGCGCUUACACGUGUACUUUUGGUCAUCCUGGGAUGCUUCUAACUUCACUGUGUGUAGGCGUUUGCCUUGGAAAUGUUGGAAUUCUCGGGUGCCAA` is recorded as 2.74.
`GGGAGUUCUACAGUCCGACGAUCAAUCUUGUUCGGGGACCACCAACGCUUGAAUAUGGCUGAGGAUGCCAUGUUUGCUCUAAAUUAAGACAGCAUUGAUCUCCUGGAGGCUGGUUCUGCUGCCUCUACACAGGUGGAAUUCUCGGGUGCCAA` — result for “RBNS enrichment (R)”: 0.279.
Under “RBNS enrichment (R)”, `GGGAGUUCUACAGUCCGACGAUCACUGGAGUUGCUGUUCCAGCUGGUCGCCCCUCACGGCACAGAGGGAACCUGAGAGCCAGAGACUUCUUGGGCCUUCCUGCCUGCCACCCCCUAGGGGCCAGGACAGGACCUGGAAUUCUCGGGUGCCAA` is recorded as 0.31.
`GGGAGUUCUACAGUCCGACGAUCCUUGCUCUACUUGAAAUUAAUUGUGAGCAUAAGCUUGUUUCUGGAGUCUUCUUACAUUGUUGGUUCUACUUACAUACUACUGGUCCAACUCUCAUGCUGUUUCUCUCAGAUGGAAUUCUCGGGUGCCAA` — result for “RBNS enrichment (R)”: 0.486.
Under “RBNS enrichment (R)”, `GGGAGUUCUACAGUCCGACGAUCUUUUCUUACCUGCUUCAAGCCGAGAUCUGAAAGCUUUGUGGAAGAUGAUCAAGCAAAGCUCCCAAGCCAAAGGGUAGCAGAGGGUGGCUACGUGGUUUUUAGGUAGAUGUUGGAAUUCUCGGGUGCCAA` is recorded as 1.5.
For `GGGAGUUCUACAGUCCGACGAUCCCGGGGGUCCUGUGGAGGAGUACAUGGAGGACUCCAGGUACAGCGCAGGAGUCACGGCUUUUGUUUUUUGACAUUGGCCCCCGGUUCUACCAAUGACAGGGUGCCCUGGCUGGAAUUCUCGGGUGCCAA`, “RBNS enrichment (R)” read 0.29.
For `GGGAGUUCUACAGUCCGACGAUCUUAAUUGUUUGCUUUGGACAUGUGGAAAGAGCCUUACUAAUAAAAUUGAUUUUGCUUAUGAAUUAAAGCCCCUUUUUGCACAUGUAUUGUACGACUGGAGUCGUUGGGUUUGGAAUUCUCGGGUGCCAA`, “RBNS enrichment (R)” read 5.18.
`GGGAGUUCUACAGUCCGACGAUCUGUGCUGGAUGUUGCUCCUUUCCCCGAUUUCAAGUUGAUGUUGACAGAAUUUCAGUAGCUUACAUAAAUCCUGAGAAUGUGAUUGGUUUUAAAAAGUAAGGUUUAAAGUCUGGAAUUCUCGGGUGCCAA`: “RBNS enrichment (R)” 5.03.
`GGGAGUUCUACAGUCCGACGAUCGCUGAAACUGAGCAUCUUGCACAGGGCUCCGAGACUGUACAGGCUACCCCAGAGAGCCUUGAAGUUCCUGAAGUCACAGAGGAUGUAGACCGUGCCACCACAUGCCAGGUUGGAAUUCUCGGGUGCCAA`: “RBNS enrichment (R)” 0.767.
`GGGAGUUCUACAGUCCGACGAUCUAUUUCCUUUGGGAGUUUCCUCUUCAUGCAUUUUGUUCCUAGGGAAUAAAAAUAGCUGUUAGACCUGUGUCUGGCCUCUGUGUUCCUUCAAGUAACCACCCUAGAGGAGAUGGAAUUCUCGGGUGCCAA` — result for “RBNS enrichment (R)”: 0.97.
For `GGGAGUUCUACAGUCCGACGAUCGUGUUUUCUUAAAAAAAAAUCACAGUUACUUCUAAACCAGAUUUCAUUUCUUUUAUUGUUUUAUGUGCCAAACCACGAAGUGCAUUGGGCUUCAAUCUCUGAACACUGUAUGGAAUUCUCGGGUGCCAA`, “RBNS enrichment (R)” read 0.596.
`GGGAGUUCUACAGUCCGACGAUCCCUUUUCAAUCUGGAGCCCUUAAACCAUAAGUCCAAAUAUGAAUUAUUUGUGAACAGUUAAUGACCCAUAUUAGAAUUUUACAAUCUGGUGAACAAUCUGGGUAAAAGGCUGGAAUUCUCGGGUGCCAA`: “RBNS enrichment (R)” 0.373.

Study 3
Target: Sal-like protein 4, full length isoform A (SALL4, Homo sapiens, UniProt Q9UJQ4, residues 1-1053)
Chain of UniProt Q9UJQ4 (whole entry, looked up): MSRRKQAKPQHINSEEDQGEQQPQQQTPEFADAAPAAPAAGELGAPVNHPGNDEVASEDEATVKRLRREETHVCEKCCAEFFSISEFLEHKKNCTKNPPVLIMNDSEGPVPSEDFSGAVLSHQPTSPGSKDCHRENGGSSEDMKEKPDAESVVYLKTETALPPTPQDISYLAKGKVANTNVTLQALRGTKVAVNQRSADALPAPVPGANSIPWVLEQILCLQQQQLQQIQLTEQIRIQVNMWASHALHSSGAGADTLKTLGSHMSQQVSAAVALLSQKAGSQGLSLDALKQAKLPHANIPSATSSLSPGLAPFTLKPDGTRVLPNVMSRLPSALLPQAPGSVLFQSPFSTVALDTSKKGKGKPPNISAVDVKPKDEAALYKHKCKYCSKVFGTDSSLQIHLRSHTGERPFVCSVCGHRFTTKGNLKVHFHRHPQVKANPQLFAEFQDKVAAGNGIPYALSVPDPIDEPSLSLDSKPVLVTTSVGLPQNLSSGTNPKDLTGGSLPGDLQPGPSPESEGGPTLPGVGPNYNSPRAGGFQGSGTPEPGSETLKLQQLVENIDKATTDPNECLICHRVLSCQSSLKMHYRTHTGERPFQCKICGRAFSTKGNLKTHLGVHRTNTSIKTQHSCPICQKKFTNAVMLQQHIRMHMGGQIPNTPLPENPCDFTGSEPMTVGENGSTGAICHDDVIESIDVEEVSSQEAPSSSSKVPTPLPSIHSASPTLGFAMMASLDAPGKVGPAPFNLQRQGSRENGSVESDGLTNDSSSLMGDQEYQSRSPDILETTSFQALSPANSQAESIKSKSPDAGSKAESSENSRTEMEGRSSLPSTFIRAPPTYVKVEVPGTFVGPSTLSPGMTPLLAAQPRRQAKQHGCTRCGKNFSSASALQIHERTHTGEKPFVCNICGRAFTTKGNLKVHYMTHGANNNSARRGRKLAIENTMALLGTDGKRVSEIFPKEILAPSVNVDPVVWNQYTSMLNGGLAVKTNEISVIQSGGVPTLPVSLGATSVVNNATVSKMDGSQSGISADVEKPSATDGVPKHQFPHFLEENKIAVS
Method: universal PBM
Form: double-stranded DNA, one strand shown
Matrix: in vitro
Tested at: 600 nM
Notes: 8-mer, flanks averaged, mean of replicates
Direction: higher = stronger binding
`ATTGTGGC` has an E-score of 0.0133.
The E-score of `AGCGTCTG` is reported as -0.157.
The E-score of `CCGTGATA` is reported as 0.047.
`TCGGACAA` gave an E-score of 0.0656.
For `ACTCCTCC`, the E-score was -0.0841.
With `AGGGCTGC` the E-score was -0.278.
The E-score of `CTGGCCGA` is reported as -0.31.
With `GAGAAATA` the E-score was 0.203.
With `CTCTCTGA` the E-score was -0.149.
The E-score of `AACATCGA` is reported as 0.153.
For `AAGCAGCA`, the E-score was -0.124.
The E-score of `AACCTAAG` is reported as -0.0224.
With `CCCGACGG` the E-score was -0.337.
`CCATGGCC` has an E-score of -0.379.
`AATATCTA` has an E-score of 0.361.
With `AGGGCTGG` the E-score was -0.319.
`CCATCGGC` gave an E-score of -0.302.
`AGCAAAAG` has an E-score of -0.00461.
The E-score of `GCCTGAGC` is reported as -0.271.

Study 4
Target: Prothrombin, mature alpha-thrombin (F2, Homo sapiens, UniProt P00734)
Method: aptamer microarray, sandwich
Form: DNA with 2'F-ANA
Matrix: in vitro
Tested at: 200 nM
Notes: whole 15-mer aptamer, many near background
Together with: Cy3 exosite-II aptamer, 400 nM
Direction: higher = stronger binding
Oligonucleotide: GGTTGGTGTGGTTGG
`2'F-ANA at 1 2 3 6 8 9 10 13 14` — result for “mean fluorescence intensity”: 49.2 a.u.
For `2'F-ANA at 2 3 4 6 7 8 9 10 11 12 13 14 15`, “mean fluorescence intensity” read 149 a.u.
Under “mean fluorescence intensity”, `2'F-ANA at 6 7 8 12 14 15` is recorded as 349 a.u.
Under “mean fluorescence intensity”, `2'F-ANA at 2 3 4 7 11 14` is recorded as 336 a.u.
`2'F-ANA at 1 2 3 4 7 11`: “mean fluorescence intensity” 161 a.u.
For `2'F-ANA at 2 3 6 9`, “mean fluorescence intensity” read 698 a.u.
`2'F-ANA at 2 3 4 5 11 12 13 15`: “mean fluorescence intensity” 102 a.u.
`2'F-ANA at 1 2 3 10 12`: “mean fluorescence intensity” 94 a.u.
For `2'F-ANA at 1 4 7 9 11 13 15`, “mean fluorescence intensity” read 83.9 a.u.
`2'F-ANA at 1 2 3 7 8 9 11 14 15`: “mean fluorescence intensity” 76.6 a.u.
Under “mean fluorescence intensity”, `2'F-ANA at 2 3 6 8 9 10 12 13 14 15` is recorded as 262 a.u.
`2'F-ANA at 1 2 6 7 9 10 11 13 14 15` — result for “mean fluorescence intensity”: 51.1 a.u.
`2'F-ANA at 5 7 8 9 10 11 14` — result for “mean fluorescence intensity”: 71.5 a.u.
`2'F-ANA at 1 4 8 10 11 12 13 15` — result for “mean fluorescence intensity”: 74.9 a.u.
`2'F-ANA at 1 2 3 5 6 8 9 14 15` — result for “mean fluorescence intensity”: 47.7 a.u.
For `2'F-ANA at 6 8 9 11 15`, “mean fluorescence intensity” read 417 a.u.
`2'F-ANA at 1 3 7 9 10 11 13`: “mean fluorescence intensity” 75.3 a.u.
For `2'F-ANA at 1 2 7 12 13 14`, “mean fluorescence intensity” read 67.8 a.u.
For `2'F-ANA at 2 4 7 8 9 10 11 13 14`, “mean fluorescence intensity” read 105 a.u.
`2'F-ANA at 2 3 6 7 9 12 14` — result for “mean fluorescence intensity”: 368 a.u.
`2'F-ANA at 3 5 6 12` — result for “mean fluorescence intensity”: 277 a.u.
For `2'F-ANA at 1 2 3 4 5 6 7 8 10 14`, “mean fluorescence intensity” read 45.9 a.u.
Under “mean fluorescence intensity”, `2'F-ANA at 1 2 3 4 8 9 10 14 15` is recorded as 199 a.u.
`2'F-ANA at 6 9 11 12 13` — result for “mean fluorescence intensity”: 547 a.u.
`2'F-ANA at 1 2 3 5 6 8 10 11 13 14 15` — result for “mean fluorescence intensity”: 54.5 a.u.

A few entries again (study 2):
For `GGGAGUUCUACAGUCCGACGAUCCCGGGGGUCCUGUGGAGGAGUACAUGGAGGACUCCAGGUACAGCGCAGGAGUCACGGCUUUUGUUUUUUGACAUUGGCCCCCGGUUCUACCAAUGACAGGGUGCCCUGGCUGGAAUUCUCGGGUGCCAA`, “RBNS enrichment (R)” read 0.29.
Under “RBNS enrichment (R)”, `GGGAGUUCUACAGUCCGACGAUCAGAAGAAAGGUUUUCGGAGGCGCUGUGAUGUGGUGCGCUUACACGUGUACUUUUGGUCAUCCUGGGAUGCUUCUAACUUCACUGUGUGUAGGCGUUUGCCUUGGAAAUGUUGGAAUUCUCGGGUGCCAA` is recorded as 2.74.
`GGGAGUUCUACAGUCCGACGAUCGCUGAAACUGAGCAUCUUGCACAGGGCUCCGAGACUGUACAGGCUACCCCAGAGAGCCUUGAAGUUCCUGAAGUCACAGAGGAUGUAGACCGUGCCACCACAUGCCAGGUUGGAAUUCUCGGGUGCCAA`: “RBNS enrichment (R)” 0.767.
Under “RBNS enrichment (R)”, `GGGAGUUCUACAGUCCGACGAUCACUGGAGUUGCUGUUCCAGCUGGUCGCCCCUCACGGCACAGAGGGAACCUGAGAGCCAGAGACUUCUUGGGCCUUCCUGCCUGCCACCCCCUAGGGGCCAGGACAGGACCUGGAAUUCUCGGGUGCCAA` is recorded as 0.31.
`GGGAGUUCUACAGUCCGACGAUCCUUGCUCUACUUGAAAUUAAUUGUGAGCAUAAGCUUGUUUCUGGAGUCUUCUUACAUUGUUGGUUCUACUUACAUACUACUGGUCCAACUCUCAUGCUGUUUCUCUCAGAUGGAAUUCUCGGGUGCCAA` — result for “RBNS enrichment (R)”: 0.486.
`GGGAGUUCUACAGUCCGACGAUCAAUCUUGUUCGGGGACCACCAACGCUUGAAUAUGGCUGAGGAUGCCAUGUUUGCUCUAAAUUAAGACAGCAUUGAUCUCCUGGAGGCUGGUUCUGCUGCCUCUACACAGGUGGAAUUCUCGGGUGCCAA` — result for “RBNS enrichment (R)”: 0.279.
`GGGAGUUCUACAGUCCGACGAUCCCUUUUCAAUCUGGAGCCCUUAAACCAUAAGUCCAAAUAUGAAUUAUUUGUGAACAGUUAAUGACCCAUAUUAGAAUUUUACAAUCUGGUGAACAAUCUGGGUAAAAGGCUGGAAUUCUCGGGUGCCAA`: “RBNS enrichment (R)” 0.373.
`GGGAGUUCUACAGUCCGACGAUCUGUGCUGGAUGUUGCUCCUUUCCCCGAUUUCAAGUUGAUGUUGACAGAAUUUCAGUAGCUUACAUAAAUCCUGAGAAUGUGAUUGGUUUUAAAAAGUAAGGUUUAAAGUCUGGAAUUCUCGGGUGCCAA`: “RBNS enrichment (R)” 5.03.
`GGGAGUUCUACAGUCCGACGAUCUAUUUCCUUUGGGAGUUUCCUCUUCAUGCAUUUUGUUCCUAGGGAAUAAAAAUAGCUGUUAGACCUGUGUCUGGCCUCUGUGUUCCUUCAAGUAACCACCCUAGAGGAGAUGGAAUUCUCGGGUGCCAA` — result for “RBNS enrichment (R)”: 0.97.
